Results pooled from the literature.
Each line is one published result; not all experiments were run side by side.
Chain of UniProt Q9NQU5 (whole entry, looked up): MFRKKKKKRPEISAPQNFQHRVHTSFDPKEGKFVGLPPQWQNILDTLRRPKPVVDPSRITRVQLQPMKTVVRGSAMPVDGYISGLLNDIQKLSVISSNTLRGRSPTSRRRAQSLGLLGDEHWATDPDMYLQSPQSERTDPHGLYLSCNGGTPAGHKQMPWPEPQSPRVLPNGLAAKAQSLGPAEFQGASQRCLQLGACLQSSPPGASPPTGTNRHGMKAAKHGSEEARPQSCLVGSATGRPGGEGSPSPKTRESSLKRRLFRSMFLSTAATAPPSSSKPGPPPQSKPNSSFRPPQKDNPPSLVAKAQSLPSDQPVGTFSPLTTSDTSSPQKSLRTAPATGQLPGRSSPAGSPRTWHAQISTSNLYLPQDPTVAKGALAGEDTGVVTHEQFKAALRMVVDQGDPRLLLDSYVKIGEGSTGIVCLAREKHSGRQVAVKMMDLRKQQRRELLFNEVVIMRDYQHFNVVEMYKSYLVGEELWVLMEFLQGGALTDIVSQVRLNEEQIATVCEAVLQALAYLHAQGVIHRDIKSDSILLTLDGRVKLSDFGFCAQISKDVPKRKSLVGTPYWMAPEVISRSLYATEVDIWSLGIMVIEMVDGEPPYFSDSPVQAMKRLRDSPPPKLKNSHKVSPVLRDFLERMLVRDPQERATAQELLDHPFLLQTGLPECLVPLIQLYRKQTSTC
Chain of UniProt P10721 (whole entry, unmodified, looked up): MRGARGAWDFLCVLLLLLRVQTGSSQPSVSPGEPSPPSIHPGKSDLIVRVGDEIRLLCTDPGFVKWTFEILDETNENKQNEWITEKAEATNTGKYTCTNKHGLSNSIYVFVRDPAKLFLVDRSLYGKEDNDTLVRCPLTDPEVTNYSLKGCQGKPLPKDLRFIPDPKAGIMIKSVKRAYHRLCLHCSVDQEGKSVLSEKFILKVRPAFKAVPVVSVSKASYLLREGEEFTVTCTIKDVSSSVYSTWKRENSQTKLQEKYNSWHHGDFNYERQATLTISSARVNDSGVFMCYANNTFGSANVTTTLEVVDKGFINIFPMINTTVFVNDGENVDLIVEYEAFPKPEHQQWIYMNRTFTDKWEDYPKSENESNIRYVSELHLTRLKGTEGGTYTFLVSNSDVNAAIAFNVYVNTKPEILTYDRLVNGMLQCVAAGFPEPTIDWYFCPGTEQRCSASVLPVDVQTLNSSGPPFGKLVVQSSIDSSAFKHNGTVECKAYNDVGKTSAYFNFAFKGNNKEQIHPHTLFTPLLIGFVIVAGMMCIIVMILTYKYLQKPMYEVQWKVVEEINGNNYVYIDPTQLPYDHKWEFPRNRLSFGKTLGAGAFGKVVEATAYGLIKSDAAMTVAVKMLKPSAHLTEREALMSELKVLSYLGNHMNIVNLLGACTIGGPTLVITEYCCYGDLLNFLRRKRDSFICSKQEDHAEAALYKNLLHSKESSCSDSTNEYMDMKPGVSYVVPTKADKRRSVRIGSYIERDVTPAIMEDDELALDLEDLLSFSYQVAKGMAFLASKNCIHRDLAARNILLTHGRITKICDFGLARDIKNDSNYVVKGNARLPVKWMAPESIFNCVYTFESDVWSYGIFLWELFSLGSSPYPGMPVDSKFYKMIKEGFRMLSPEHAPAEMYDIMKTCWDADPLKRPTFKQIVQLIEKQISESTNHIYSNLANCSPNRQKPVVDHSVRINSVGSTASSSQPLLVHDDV

With `N.N.[Cl][Pt][Cl]` the IC50 was 2.52 µM (JeKo-1; cell growth or viability, ATP luminescence; 72 h).
For `Cc1cc(N(CCO)CCO)ccc1C(=O)O`, the IC50 was greater than 10 µg/mL (A498; cell growth or viability).
`COc1ccc(-c2c(-c3ccc(C#N)c(F)c3)nc(N3CCC(N)CC3)n(C)c2=O)cc1F` gave an IC50 of 47 µM (U2OS; cell growth or viability, resazurin).
`COc1c(C)c2c(c(O)c1C/C=C(\C)CCC(=O)O)C(=O)OC2` gave an IC50 of 2.95 µM (BT-20; cell growth or viability).
`COc1cc2cc(c1Cl)N(C)C(=O)C[C@H](OC(=O)[C@H](C)N(C)C(=O)CCS)[C@]1(C)O[C@H]1[C@H](C)[C@@H]1C[C@@](O)(NC(=O)O1)[C@H](OC)/C=C/C=C(\C)C2` has an IC50 of 0.0525 µM (MCF7; cell growth or viability, SRB; 48 h).
With `[2H]c1c([2H])c([C@]2([2H])CCCN2C(=O)C(C)(C)Oc2ccc3cn[nH]c3c2)c([2H])c([2H])c1C([2H])([2H])[2H]` the remaining binding was 100% (PAK6 (Homo sapiens, UniProt Q9NQU5); binding, competition with immobilised ligand; 1 µM).
`Cc1cc(N(CCO)CCO)ccc1C=O` gave an IC50 of greater than 10 µg/mL (786-0; cell growth or viability).
For `COC(=O)c1cc(-c2cccc(NC(=O)Nc3ccc(C)cc3)c2)on1`, the MIC was greater than 64 µg/mL (Pseudomonas aeruginosa; microbial growth, broth dilution; ATCC27853).
The IC50 of `S=P1(c2ccccc2)CCCCC1` is reported as greater than 100 µM (SW480; cell growth or viability, MTT; 72 h).
With `Nc1ncc(-c2nc(N3CCOCC3)nc(N3CCOCC3)n2)c(C(F)F)n1` the remaining binding was 43% (KIT (Homo sapiens, UniProt P10721, V559D/V654A); binding, competition with immobilised ligand; 10 µM).
The IC50 of `CC[C@H](Nc1nc(NCc2cnc(C)cc2C)c2ncn(C(C)C)c2n1)[C@@H](C)O` is reported as 0.382 µM (HD-MB03; cell growth or viability; 7 days).
The IC50 of `CC(=O)c1c(C)c2cnc(Nc3ccc(C4CCN(CCS(C)(=O)=O)CC4)cn3)nc2n(C2CCCC2)c1=O` is reported as 0.203 µM (ZR-75-1; cell growth or viability, ATP luminescence; 72 h).
With `COC(=O)c1cc(-c2cccc(NC(=O)Nc3c(C)cccc3C)c2)on1` the MIC was greater than 64 µg/mL (Mycobacteroides chelonae; microbial growth, broth dilution; ATCC35752; 48 h).
`O=C1CCP(=[Se])(c2ccccc2)CC1` has an IC50 of 88.1 µM (SW480; cell growth or viability, MTT; 72 h).
The remaining binding of `Cc1nn(C)cc1-c1nc2c(N3CCN(Cc4ccc(Cl)cc4)CC3)c(Cl)cnc2[nH]1` is reported as 84% (EGFR (Homo sapiens, UniProt P00533, L861Q); binding, competition with immobilised ligand; 1 µM).
For `S=P1(C2CCCCC2)CCCCC1`, the IC50 was greater than 100 µM (SW480; cell growth or viability, MTT; 72 h).
The IC50 of `COc1cc(C(=O)c2nc(-c3cccc4[nH]ccc34)c[nH]2)cc(OC)c1OC` is reported as 0.0042 µM (COS-7; cell growth or viability).
